Measured values collected from several papers.
Values joined by “and” are separate records of one study, mostly repeats; a detail may differ. ± marks the error that the study gave.
PFF0160c E182D: Dihydroorotate dehydrogenase (quinone), mitochondrial (PFF0160c, Plasmodium falciparum, UniProt Q08210, E182D)
ADRA1A: Alpha-1A adrenergic receptor (ADRA1A, Homo sapiens, UniProt P35348)
UniProt P35348, sequence (whole entry, looked up): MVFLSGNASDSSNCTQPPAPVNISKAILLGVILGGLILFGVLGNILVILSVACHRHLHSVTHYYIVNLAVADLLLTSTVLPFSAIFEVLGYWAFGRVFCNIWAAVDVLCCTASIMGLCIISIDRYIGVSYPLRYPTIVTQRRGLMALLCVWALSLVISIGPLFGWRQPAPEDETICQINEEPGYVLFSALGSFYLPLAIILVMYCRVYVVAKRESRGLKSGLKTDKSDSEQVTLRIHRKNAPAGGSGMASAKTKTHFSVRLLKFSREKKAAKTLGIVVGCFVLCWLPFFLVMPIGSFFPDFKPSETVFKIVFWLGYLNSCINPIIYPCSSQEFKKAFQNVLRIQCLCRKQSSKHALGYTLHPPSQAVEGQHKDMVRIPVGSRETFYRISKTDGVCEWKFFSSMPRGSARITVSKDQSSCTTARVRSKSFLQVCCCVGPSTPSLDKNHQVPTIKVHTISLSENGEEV
CTSL: Procathepsin L (CTSL, Homo sapiens, UniProt P07711)
UniProt P07711, sequence (whole entry, looked up): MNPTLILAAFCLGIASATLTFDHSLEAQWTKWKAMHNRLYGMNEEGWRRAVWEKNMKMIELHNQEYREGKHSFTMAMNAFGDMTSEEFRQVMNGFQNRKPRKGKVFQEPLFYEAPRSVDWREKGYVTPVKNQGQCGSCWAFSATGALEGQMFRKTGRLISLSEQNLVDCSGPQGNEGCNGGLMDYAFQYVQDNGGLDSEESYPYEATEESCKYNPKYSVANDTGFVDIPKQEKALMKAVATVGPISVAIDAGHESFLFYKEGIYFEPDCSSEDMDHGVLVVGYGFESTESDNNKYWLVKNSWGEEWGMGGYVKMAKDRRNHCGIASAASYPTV
ACHE: Acetylcholinesterase (ACHE, Homo sapiens, UniProt P22303)
UniProt P22303, sequence (whole entry, looked up): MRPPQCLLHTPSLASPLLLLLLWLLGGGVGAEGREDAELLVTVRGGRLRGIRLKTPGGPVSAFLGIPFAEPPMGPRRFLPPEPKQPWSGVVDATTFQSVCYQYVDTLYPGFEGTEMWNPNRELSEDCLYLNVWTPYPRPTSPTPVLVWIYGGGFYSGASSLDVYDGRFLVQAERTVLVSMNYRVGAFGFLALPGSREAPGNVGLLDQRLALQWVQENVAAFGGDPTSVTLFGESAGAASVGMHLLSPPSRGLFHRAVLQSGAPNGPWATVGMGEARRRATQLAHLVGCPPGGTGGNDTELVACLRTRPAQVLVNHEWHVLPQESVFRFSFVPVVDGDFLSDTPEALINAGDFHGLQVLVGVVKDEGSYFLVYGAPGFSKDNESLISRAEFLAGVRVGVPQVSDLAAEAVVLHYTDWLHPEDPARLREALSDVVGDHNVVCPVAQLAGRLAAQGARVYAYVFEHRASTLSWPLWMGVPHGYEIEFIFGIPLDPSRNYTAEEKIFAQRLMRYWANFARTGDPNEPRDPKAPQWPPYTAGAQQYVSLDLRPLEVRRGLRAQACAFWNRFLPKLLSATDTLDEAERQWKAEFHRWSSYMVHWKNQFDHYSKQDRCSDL
Aryl hydrocarbon receptor: Aryl hydrocarbon receptor (Danio rerio, UniProt Q9YGV3)
UniProt A5GZW8, sequence (whole entry, looked up): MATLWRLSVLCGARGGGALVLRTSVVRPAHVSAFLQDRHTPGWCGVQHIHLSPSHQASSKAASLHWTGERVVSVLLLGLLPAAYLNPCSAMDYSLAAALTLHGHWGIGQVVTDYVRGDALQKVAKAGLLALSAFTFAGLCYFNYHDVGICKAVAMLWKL
UniProt D0VWV4, sequence (whole entry, looked up): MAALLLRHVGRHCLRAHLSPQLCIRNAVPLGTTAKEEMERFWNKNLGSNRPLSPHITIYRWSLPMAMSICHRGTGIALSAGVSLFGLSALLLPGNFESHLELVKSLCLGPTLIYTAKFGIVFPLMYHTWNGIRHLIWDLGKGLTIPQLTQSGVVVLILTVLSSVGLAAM
UniProt Q007T0, sequence (whole entry, looked up): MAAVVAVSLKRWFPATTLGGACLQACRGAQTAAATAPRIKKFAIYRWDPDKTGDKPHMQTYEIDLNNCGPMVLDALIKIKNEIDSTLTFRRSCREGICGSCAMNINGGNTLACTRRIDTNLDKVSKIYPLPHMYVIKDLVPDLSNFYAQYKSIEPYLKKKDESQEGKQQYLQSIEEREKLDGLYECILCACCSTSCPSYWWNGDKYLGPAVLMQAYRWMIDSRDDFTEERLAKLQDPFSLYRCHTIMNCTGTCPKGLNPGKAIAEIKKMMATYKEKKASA
UniProt P62937, sequence (whole entry, looked up): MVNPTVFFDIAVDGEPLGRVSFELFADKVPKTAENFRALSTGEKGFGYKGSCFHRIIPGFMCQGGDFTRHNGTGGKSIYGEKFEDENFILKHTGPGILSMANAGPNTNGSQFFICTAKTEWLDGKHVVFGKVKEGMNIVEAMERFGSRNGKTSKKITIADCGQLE
UniProt Q62351, sequence (whole entry, looked up): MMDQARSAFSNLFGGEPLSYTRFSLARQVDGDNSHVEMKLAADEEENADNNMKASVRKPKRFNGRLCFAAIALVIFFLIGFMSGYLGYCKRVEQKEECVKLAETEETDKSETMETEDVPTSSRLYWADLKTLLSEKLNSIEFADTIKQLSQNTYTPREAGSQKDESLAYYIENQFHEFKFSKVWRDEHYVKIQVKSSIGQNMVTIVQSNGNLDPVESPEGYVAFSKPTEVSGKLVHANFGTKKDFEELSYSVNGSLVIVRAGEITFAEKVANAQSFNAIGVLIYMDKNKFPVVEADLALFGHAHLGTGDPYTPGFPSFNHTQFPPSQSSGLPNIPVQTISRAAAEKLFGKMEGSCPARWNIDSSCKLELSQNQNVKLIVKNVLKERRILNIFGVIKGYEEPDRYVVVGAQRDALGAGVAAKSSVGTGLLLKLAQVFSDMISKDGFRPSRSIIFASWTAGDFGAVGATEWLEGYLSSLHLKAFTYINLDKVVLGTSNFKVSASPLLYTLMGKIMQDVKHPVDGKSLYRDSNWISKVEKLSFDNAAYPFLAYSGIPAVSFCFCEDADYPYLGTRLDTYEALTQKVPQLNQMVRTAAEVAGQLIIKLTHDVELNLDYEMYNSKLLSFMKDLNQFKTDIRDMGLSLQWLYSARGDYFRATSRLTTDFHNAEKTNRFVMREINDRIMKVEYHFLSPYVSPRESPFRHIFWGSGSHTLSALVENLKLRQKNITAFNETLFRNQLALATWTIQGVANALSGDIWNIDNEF
UniProt P36544, sequence (whole entry, looked up): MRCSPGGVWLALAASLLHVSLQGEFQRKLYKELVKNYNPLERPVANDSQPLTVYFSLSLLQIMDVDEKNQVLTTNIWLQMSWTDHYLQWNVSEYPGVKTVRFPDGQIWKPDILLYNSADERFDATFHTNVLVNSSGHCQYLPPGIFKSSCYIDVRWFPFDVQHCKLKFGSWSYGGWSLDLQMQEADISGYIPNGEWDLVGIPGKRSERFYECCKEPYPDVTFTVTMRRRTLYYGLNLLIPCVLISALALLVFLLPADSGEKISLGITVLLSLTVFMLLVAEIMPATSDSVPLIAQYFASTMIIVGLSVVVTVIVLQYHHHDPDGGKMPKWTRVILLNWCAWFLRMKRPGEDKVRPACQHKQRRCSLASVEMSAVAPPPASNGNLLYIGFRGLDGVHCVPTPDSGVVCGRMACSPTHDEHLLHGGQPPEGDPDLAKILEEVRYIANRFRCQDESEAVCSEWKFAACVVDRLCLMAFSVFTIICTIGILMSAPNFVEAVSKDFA
UniProt P35869, sequence (whole entry, looked up): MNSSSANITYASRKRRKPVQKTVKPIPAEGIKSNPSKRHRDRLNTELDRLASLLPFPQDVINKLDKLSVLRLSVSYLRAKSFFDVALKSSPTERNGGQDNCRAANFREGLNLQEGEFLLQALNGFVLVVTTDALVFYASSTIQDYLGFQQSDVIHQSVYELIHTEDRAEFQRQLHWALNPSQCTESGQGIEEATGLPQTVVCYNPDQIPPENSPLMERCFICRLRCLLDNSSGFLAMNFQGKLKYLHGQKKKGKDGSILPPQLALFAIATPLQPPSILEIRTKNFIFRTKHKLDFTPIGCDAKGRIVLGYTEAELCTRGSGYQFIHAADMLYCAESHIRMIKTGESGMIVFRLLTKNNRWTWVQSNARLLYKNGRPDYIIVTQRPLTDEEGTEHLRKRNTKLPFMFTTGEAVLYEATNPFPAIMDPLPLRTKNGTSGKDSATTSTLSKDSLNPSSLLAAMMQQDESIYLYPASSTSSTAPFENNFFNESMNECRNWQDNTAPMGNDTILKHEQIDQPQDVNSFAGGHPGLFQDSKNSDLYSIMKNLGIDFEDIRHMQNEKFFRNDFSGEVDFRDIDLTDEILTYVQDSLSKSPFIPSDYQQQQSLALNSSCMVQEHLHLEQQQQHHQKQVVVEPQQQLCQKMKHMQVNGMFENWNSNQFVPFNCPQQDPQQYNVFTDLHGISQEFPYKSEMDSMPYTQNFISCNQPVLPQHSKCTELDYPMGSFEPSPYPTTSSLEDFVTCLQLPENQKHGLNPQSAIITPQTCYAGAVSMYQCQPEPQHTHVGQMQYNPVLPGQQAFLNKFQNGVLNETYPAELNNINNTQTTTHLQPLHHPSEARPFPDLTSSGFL
UniProt P49116, sequence (whole entry, looked up): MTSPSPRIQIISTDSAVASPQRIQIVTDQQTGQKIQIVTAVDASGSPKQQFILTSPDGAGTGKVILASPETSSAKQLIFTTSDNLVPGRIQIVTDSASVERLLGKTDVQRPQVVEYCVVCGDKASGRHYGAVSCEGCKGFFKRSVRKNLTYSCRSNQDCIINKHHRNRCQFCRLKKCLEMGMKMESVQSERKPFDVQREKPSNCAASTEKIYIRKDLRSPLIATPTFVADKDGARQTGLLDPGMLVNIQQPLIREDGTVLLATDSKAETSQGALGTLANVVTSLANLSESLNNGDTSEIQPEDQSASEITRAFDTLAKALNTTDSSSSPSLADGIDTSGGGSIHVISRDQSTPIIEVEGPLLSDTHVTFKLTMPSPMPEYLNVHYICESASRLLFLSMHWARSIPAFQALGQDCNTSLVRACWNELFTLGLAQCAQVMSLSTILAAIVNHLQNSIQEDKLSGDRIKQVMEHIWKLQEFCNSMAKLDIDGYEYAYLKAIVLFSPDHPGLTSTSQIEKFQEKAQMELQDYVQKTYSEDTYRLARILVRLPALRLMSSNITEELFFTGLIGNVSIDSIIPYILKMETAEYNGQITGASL

SMILES	target	test	test system	conditions	scale	endpoint	result
CCCn1c(O)nnc1SCC(=O)Nc1cc(Cl)ccc1Cl	PFF0160c E182D	enzyme activity, DCIP colorimetric	–	–	baseline: E182D mutant over wild type	IC50 ratio	2.4
C=C(CN(C(=O)c1c(C(F)F)nn(C)c1F)C1CC1)c1ccc(Cl)cc1Cl	SDHD/SDHC/SDHB (Sus scrofa, UniProt A5GZW8+D0VWV4+Q007T0)	enzyme activity, inhibitor, DCIP reduction	pig	0.06 µM, together with: DCIP 80 µM	–	reaction velocity	0.021 µM/s and 0.0202 µM/s
C[C@H]1COCCN1c1nc(NCc2cccnc2C(F)(F)F)c2cccnc2n1	ADRA1A	binding	–	CEREP panel	–	IC50	> 100 µM
CCOC(=O)CC(SP(=O)(OC)OC)C(=O)OCC (stereo not shown)	uncharacterized protein (Anopheles coluzzii, UniProt A0A6E8VQK1)	enzyme activity, inhibitor	Sf9 cell homogenate	45.87 µM, 0.1667 h, together with: α-naphthyl acetate substrate	baseline: no inhibitor	remaining activity	2.26%
Cc1nc2c(c(O)c1Cl)-c1ccc(Oc3cccc(C(F)(F)F)c3)cc1C2=O	PFF0160c E182D	enzyme activity, DCIP colorimetric	–	–	baseline: E182D mutant over wild type	IC50 ratio	2.1
Cc1cn([C@H]2C[C@H](O)[C@@H](COP(=O)(O)OP(=O)(O)OP(=O)(O)O)O2)c(=O)[nH]c1=O	DNA polymerase I, Klenow fragment (polA, Escherichia coli, UniProt P00582, C907S/D424A/L744C)	nucleotide incorporation, substrate, single-turnover rapid quench	–	together with: radiolabelled primer-template DNA	–	maximum incorporation rate	40 ± 2 s⁻¹
Nc1ncnc2c1ncn2[C@@H]1O[C@H](COP(=O)(O)OP(=O)(O)NP(=O)(O)O)[C@@H](O)[C@H]1O	Cell cycle histidine kinase CckA, G318A; cytoplasmic region (Caulobacter vibrioides, UniProt Q9X688, G318A)	ITC	–	12 °C, without c-di-GMP	–	-TΔS	-5.02 kJ/mol
CC(C)c1cccc(NC(=O)C2CC(=O)Nc3ccccc32)c1 (stereo not shown)	CTSL	enzyme activity, inhibitor, FRET	–	10-point dose response	–	Hill slope	0.807
COc1cc(Nc2ccnc3cc(-c4ccncc4)ccc23)cc(OC)c1OC.Cl	PFF0160c E182D	enzyme activity, DCIP colorimetric	–	–	baseline: E182D mutant over wild type	IC50 ratio	0.8
CC[C@@H](C)[C@@H](NC(=O)[C@@H](Cc1ccc(O)cc1)NC(=O)[C@H]1CCCN1C(=O)[C@@H](CCCNC(=N)N)NC(=O)[C@H](N)Cc1c[nH]cn1)C(=O)N[C@H](C)C(=O)N[C@H](Cc1c[nH]cn1)C(=O)N[C@H](CCCNC(=N)N)C(=O)N[C@H](CCCCNC(=O)c1cccc(S(=O)(=O)F)c1)C(=O)N[C@H](Cc1ccc(O)cc1)C(=O)N[C@H](CO)C(=O)N[C@H](Cc1ccccc1)C(N)=O	Transferrin receptor protein 1 (Tfrc, Mus musculus, UniProt Q62351)	flow cytometry	RAW264.7	2 h, pH 7.4, unit not given	baseline: 0 h	surface expression	1
COc1cc(Nc2ncc(F)c(Nc3ccc4c(n3)NC(=O)C(C)(C)O4)n2)cc(OC)c1OC	DYRK2 (Homo sapiens, UniProt Q92630)	KINOMEscan	–	10 µM	–	inhibition	91%
O=C(Nc1cnccc1Cl)N1CCN(Cc2ccc3c(c2)OC(F)(F)O3)CC1	OPRD1 (Homo sapiens, UniProt P41143)	radioligand binding, inhibitor	–	50 µM, human, together with: [3H]naltrindole	–	inhibition	6%
COc1c(Cl)c2c3c(c1OC)-c1cc4c(cc1C[C@@H]3N(C)CC2)OCO4	ADRA1A	calcium flux, antagonist, FLIPR	CHO-K1	together with: norepinephrine	–	apparent Kb	1.27 ± 0.12 µM
C[C@]12CC[C@H]3[C@@H](CCC4=CC(=O)CC[C@@]43C)[C@@H]1CC[C@@H]2C(=O)CO	CYP11B1 (Homo sapiens, UniProt P15538)	substrate	–	100 µM, 37 °C, phospholipid vesicles	–	11β-hydroxylation product formation rate	30.5 ± 1.1 min⁻¹
CO/N=C1\C[C@]2(C[C@@H]3C[C@@H](C/C=C(\C)C[C@@H](C)/C=C/C=C4\CO[C@@H]5[C@H](O)C(C)=C[C@@H](C(=O)O3)[C@]45O)O2)O[C@H](/C(C)=C/C(C)C)[C@H]1C	Bile acid receptor (NR1H4, Homo sapiens, UniProt Q96RI1)	coactivator recruitment, antagonist, TR-FRET	–	NG, together with: 50 µM CDCA	–	efficacy	13.9 ± 0.92%
COc1cc(N)c(Cl)cc1C(=O)NC1CN2CCC1CC2 (stereo not shown)	Probable G-protein coupled receptor 25 (GPR25, Homo sapiens, UniProt O00155)	β-arrestin recruitment, TANGO luminescence, refers to: GPR25	–	concentration not given	baseline: basal luminescence	log2 fold change	0.057
CN1CCN(c2cc(-c3ccncc3)c(-c3ccc4ccccc4c3)nn2)CC1	S1PR5 (Homo sapiens, UniProt Q9H228)	agonist, FLIPR	–	12.5 µM	–	activation	2%
Clc1ccc(-c2ccccc2Cl)cc1	AHR (Homo sapiens, UniProt P35869)	reporter gene, antagonist	AZ-AHR cells	24 h, together with: TCDD 4.5 nM	–	IC25	14 µM
C[C@@H](NC(=O)c1ccc(C#Cc2cccc(F)c2)cn1)C(C)(C)O	Grm5 (Rattus norvegicus, UniProt P31424, A809V)	calcium mobilization, inhibitor	cells expressing MPEP-site mutant receptor	concentration not given	–	agonist response	inhibited

SMILES	target	test	test system	conditions	scale	endpoint	result
Oc1ccc(Cl)cc1Cc1cc(Cl)ccc1O	ACHE	–	biochemical	concentration not given	–	activity class	inactive
C[C@H]1CN(c2n[nH]c3nc(N[C@H]4CC[C@H](NS(=O)(=O)CCC(F)(F)F)CC4)ncc23)CCO1	Isoleucine--tRNA ligase, cytoplasmic (Homo sapiens, UniProt P41252)	Kinobeads competition, refers to: IARS	–	0.16 µM, unit not given	baseline: vehicle	remaining binding	0.96
O=C(c1ccc(Cl)cc1)N1CCN2C(=O)N(OC(=O)N3CCOc4ccccc43)C(=O)C2C1 (stereo not shown)	PPIA (Homo sapiens, UniProt P62937)	MS-based ABPP	SW-620 conditioned medium	10 µM, 1 h, 37 °C	baseline: compound over DMSO, lower = more inhibition	peptide ratio	1.57 and 0.84
Oc1ccc2ccc3cccc4ccc1c2c34	Aryl hydrocarbon receptor	reporter gene, agonist, luciferase reporter	ZF-4	123.5 µM	baseline: vehicle control	fold change	1.64
COc1ccc(N2C(=O)N(c3c(C)cccc3Cl)Cc3cnc(Nc4ccc(C5CCN(C)CC5)cc4OC)nc32)nc1	PLK4 (Homo sapiens, UniProt O00444)	kinase activity	–	0.5 µM	–	inhibition	2.62%
c1csc(-c2nnc3sc(Cc4ccc5c(c4)CCCC5)nn23)c1	PFF0160c E182D	enzyme activity, DCIP colorimetric	–	–	baseline: E182D mutant over wild type	IC50 ratio	1.3
CN(C)CCOC(C)(c1ccccc1)c1ccc(Cl)cc1 (stereo not shown)	ACHE	–	biochemical	concentration not given	–	activity class	inactive
NC(CO)COP(=O)(O)O (racemic)	Cj1438c (Campylobacter jejuni, UniProt Q0P8H6)	substrate inhibition, PK/LDH coupled	–	pH 8.0, 25 °C, racemate, together with: D-glucuronate 10 mM, ATP 3.0 mM	–	Ki	19000 ± 2000 µM
Cl.NCC(O)c1ccc(O)cc1 (racemic)	Nuclear receptor subfamily 2 group C member 2, ligand-binding domain (Homo sapiens, UniProt P49116)	SPR imaging	–	600 nM	–	koff	4.92e-06 s⁻¹
Nc1ncnc2c1ncn2[C]1O[C@H](CSCC[C@H](N)C(=O)O)[C](O)[C]1O	CTSL	enzyme activity, inhibitor	–	100 µM, together with: substrate Z-FR-AFC	–	remaining activity	117%
COc1ccc2[nH]c3c(c2c1)CCN(C)CC3.Cl	CHRNA7 (Homo sapiens, UniProt P36544)	ion current, inhibitor, two-electrode voltage clamp	Xenopus laevis oocytes	10 µM, human receptor, together with: acetylcholine 100 µM	–	recovery time constant	8.7 s
CC(=O)c1cnc2ccc(-c3cc(Cl)c(O)c(Cl)c3)nc2c1N[C@H]1CC[C@H](CN(C)C)CC1	Receptor-like kinase TMK4 (TMK4, Arabidopsis thaliana, UniProt Q9LK43)	binding, SPR	–	concentration not given	baseline: FER	fold change of KD	38.3
Nc1nc2c(ncn2[C@@H]2O[C@H](COP(=O)(O)OP(=O)(O)OP(=O)(O)O)[C@@H](O)[C@H]2O)c(=O)[nH]1	GTP 3',8-cyclase (moaA, Staphylococcus aureus, UniProt P69848, R17A)	isothermal titration calorimetry	–	concentration not given, 25 °C, R17A mutant, anaerobic	–	binding enthalpy	-17.2 ± 1.26 kJ/mol
[2H]c1c([2H])c([C@]2([2H])CCCN2C(=O)C(C)(C)Oc2ccc3cn[nH]c3c2)c([2H])c([2H])c1C([2H])([2H])[2H]	Mast/stem cell growth factor receptor Kit, autoinhibited (KIT, Homo sapiens, UniProt P10721)	KINOMEscan	–	1 µM	baseline: DMSO control	remaining binding	71%
CCNC(=O)NCCCOc1cccc(CN2CCCCC2)c1	ACHE	–	biochemical	concentration not given	–	activity class	inactive
c1ccc2c3c(ccc2c1)-c1cccc2cccc-3c12	Aryl hydrocarbon receptor	reporter gene, agonist, luciferase reporter	ZF-4	10000 µM	baseline: vehicle control	fold change	16.8
CC[C@H](C)[C@H](NC(=O)CNC(=O)[C@@H](N)CCCCN)C(=O)N[C@@H](CC(C)C)C(=O)N[C@@H](CCCCN)C(=O)N[C@@H](CCCNC(=N)N)C(=O)N[C@@H](CCC(=O)O)C(=O)N[C@@H](CCCCN)C(=O)N[C@@H](CCCNC(=N)N)C(=O)N[C@@H](CC(C)C)C(=O)N[C@@H](CCCNC(=N)N)C(=O)N[C@@H](CCCNC(=N)N)C(=O)N[C@@H](CCCCN)C(=O)N[C@@H](CC(N)=O)C(=O)N[C@H](C(=O)N[C@@H](Cc1c[nH]cn1)C(=O)N[C@@H](Cc1c[nH]c2ccccc12)C(=O)N1CCC[C@H]1C(=O)N[C@@H](CCC(=O)O)C(=O)N[C@@H](CCC(=O)O)C(=O)NCC(=O)N[C@@H](CCCCN)C(=O)N[C@@H](CC(C)C)C(=O)N[C@@H](CCCNC(=N)N)C(=O)N[C@@H](CCC(=O)O)C(=O)N[C@@H](Cc1ccc(O)cc1)C(=O)N[C@@H](Cc1ccccc1)C(=O)N[C@@H](Cc1ccc(O)cc1)C(=O)N[C@@H](Cc1ccccc1)C(=O)N[C@@H](CCC(=O)O)C(=O)N[C@@H](CC(C)C)C(=O)N[C@@H](CC(=O)O)C(=O)N[C@@H](CCC(=O)O)C(=O)N[C@@H](C)C(=O)N[C@@H](CCC(=O)O)C(=O)N[C@@H](CCCNC(=N)N)C(=O)N[C@H](C(=O)N[C@@H](CC(N)=O)C(=O)N[C@H](C(=O)O)C(C)C)C(C)C)C(C)C	protein phosphatase 1 complexes	bead binding, competitive inhibitor, inhibitor bead pulldown LC-MS/MS, refers to: RPAP3	HeLa and HEK293T cells, cell lysate	concentration not given	baseline: compound over control	log2 fold change	-6.28
O=C1NC(=O)[C@](CNC(=O)c2cnn(-c3ccccc3)n2)(C2CC2)N1	PLAT (Homo sapiens, UniProt P00750)	inhibitor	–	concentration not given	–	activity	inactive

A few entries again:
SMILES	target	test	test system	conditions	scale	endpoint	result
CCOC(=O)CC(SP(=O)(OC)OC)C(=O)OCC (stereo not shown)	uncharacterized protein (Anopheles coluzzii, UniProt A0A6E8VQK1)	enzyme activity, inhibitor	Sf9 cell homogenate	45.87 µM, 0.1667 h, together with: α-naphthyl acetate substrate	baseline: no inhibitor	remaining activity	2.26%
Cc1nc2c(c(O)c1Cl)-c1ccc(Oc3cccc(C(F)(F)F)c3)cc1C2=O	PFF0160c E182D	enzyme activity, DCIP colorimetric	–	–	baseline: E182D mutant over wild type	IC50 ratio	2.1
